Assay results of several laboratories.
Lines come from different studies, so protocols differ. Several values in a cell are separate wells, animals, samples, runs or records. Numbers after ± are the reported error.
UniProt P61073, sequence (whole entry, looked up): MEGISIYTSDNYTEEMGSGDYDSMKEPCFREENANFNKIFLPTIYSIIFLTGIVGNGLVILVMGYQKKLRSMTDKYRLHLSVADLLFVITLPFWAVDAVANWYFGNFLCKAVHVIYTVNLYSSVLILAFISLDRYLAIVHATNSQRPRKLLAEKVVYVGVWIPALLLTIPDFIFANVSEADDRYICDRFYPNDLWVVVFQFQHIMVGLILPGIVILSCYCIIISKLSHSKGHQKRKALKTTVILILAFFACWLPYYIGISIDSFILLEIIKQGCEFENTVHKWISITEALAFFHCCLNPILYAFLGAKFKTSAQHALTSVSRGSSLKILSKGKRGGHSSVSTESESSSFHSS
UniProt P30542, sequence (whole entry, looked up): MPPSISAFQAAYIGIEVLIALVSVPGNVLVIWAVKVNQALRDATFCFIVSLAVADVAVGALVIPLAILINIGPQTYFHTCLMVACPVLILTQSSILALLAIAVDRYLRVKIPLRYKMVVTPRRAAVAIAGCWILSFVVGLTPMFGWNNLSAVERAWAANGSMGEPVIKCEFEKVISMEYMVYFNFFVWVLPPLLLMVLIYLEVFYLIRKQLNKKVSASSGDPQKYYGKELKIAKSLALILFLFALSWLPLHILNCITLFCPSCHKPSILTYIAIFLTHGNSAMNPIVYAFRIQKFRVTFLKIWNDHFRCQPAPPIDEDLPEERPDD
UniProt P19793, sequence (whole entry, looked up): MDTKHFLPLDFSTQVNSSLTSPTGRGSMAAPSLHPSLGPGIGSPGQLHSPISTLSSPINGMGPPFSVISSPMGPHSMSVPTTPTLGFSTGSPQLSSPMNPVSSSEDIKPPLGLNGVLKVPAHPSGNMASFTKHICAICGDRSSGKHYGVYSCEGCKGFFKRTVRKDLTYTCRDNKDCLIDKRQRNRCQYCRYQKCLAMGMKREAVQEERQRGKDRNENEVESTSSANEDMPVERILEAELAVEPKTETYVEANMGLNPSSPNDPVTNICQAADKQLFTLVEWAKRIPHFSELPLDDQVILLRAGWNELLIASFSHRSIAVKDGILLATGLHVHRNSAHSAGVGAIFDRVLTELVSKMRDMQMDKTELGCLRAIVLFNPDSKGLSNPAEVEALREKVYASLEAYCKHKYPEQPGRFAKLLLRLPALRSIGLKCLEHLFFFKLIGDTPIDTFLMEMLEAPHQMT
UniProt P06935, sequence (whole entry, looked up): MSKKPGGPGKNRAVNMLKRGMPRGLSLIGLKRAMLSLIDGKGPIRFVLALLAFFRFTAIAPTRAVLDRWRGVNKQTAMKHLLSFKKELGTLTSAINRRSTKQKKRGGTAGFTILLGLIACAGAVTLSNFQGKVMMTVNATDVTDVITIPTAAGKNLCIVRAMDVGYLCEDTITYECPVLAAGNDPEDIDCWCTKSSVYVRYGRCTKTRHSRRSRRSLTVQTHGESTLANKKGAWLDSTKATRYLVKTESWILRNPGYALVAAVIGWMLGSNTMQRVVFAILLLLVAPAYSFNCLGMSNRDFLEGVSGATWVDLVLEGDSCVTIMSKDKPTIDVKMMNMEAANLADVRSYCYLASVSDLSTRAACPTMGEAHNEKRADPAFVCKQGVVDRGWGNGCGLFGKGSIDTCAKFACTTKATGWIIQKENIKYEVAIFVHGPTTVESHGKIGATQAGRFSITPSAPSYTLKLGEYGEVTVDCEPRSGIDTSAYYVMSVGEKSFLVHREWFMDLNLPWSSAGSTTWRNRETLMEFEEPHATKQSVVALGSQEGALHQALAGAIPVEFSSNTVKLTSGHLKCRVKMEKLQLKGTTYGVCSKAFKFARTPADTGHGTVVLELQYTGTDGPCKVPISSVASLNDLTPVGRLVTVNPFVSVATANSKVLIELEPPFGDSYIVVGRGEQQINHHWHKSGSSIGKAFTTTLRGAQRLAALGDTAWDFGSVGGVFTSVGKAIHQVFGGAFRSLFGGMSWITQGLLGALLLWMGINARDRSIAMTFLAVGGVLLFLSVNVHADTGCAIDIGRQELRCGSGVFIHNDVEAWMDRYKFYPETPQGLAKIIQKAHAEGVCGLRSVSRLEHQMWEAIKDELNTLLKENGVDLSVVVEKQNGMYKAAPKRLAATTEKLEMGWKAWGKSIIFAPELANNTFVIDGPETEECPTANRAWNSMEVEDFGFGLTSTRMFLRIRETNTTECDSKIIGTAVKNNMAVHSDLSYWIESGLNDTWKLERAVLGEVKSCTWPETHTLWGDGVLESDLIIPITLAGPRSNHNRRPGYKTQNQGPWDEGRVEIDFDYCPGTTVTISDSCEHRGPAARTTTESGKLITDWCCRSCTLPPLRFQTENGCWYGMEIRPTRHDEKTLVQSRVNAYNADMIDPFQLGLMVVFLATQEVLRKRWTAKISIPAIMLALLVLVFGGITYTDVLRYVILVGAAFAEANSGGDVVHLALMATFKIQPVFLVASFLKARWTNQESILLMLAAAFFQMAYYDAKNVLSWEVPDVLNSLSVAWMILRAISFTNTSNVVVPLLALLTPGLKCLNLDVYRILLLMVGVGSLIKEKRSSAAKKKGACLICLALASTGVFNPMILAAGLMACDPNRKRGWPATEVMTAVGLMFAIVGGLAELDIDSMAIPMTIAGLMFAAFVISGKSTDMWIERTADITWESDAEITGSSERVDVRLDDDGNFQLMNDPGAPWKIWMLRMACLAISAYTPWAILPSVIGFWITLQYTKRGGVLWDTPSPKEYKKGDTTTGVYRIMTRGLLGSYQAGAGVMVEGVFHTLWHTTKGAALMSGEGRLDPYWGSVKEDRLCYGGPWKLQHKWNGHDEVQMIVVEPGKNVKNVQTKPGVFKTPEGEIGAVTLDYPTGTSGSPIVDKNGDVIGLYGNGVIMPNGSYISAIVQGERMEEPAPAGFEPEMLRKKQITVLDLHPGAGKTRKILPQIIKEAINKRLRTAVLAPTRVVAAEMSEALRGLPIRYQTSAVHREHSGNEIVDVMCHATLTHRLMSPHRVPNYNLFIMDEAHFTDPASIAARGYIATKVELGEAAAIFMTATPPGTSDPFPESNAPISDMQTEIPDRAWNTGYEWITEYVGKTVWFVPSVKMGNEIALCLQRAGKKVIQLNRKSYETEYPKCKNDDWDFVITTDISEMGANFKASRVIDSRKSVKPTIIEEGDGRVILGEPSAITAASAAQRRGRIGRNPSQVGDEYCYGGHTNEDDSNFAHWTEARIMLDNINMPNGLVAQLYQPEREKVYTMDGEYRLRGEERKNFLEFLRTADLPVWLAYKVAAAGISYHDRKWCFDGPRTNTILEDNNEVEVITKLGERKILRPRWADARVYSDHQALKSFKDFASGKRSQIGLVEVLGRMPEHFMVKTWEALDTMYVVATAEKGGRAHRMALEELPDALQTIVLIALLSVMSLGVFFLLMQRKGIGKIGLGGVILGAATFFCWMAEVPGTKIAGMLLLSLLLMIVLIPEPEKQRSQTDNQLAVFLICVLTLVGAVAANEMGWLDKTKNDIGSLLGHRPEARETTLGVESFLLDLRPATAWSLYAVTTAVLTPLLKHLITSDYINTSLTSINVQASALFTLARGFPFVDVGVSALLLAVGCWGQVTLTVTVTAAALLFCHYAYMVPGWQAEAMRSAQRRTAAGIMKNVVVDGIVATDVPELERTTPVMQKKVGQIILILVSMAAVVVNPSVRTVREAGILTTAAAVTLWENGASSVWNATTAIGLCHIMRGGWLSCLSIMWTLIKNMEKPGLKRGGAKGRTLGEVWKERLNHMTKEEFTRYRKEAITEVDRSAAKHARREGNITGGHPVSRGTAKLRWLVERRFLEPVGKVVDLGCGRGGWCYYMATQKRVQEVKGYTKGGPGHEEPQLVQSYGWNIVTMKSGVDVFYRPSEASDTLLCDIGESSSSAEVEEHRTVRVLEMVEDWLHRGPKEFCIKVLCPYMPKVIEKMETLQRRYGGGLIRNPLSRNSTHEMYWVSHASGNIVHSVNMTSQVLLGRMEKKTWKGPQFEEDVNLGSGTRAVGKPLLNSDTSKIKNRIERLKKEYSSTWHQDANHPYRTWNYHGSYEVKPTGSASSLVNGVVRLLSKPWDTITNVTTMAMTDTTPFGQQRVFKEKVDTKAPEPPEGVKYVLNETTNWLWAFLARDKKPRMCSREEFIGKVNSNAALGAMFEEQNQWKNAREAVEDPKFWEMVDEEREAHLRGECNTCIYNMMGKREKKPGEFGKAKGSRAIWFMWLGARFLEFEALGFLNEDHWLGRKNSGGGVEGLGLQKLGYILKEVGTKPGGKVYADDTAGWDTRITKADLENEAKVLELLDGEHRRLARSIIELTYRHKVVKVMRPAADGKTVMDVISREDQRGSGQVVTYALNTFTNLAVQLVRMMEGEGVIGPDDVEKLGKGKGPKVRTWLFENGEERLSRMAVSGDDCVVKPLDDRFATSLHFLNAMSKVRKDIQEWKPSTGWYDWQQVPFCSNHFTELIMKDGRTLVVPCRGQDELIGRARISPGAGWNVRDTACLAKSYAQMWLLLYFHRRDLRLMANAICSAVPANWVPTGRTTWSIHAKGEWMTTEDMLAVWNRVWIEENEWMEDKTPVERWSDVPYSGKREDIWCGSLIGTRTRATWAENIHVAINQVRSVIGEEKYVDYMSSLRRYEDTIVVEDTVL
UniProt P30518, sequence (whole entry, looked up): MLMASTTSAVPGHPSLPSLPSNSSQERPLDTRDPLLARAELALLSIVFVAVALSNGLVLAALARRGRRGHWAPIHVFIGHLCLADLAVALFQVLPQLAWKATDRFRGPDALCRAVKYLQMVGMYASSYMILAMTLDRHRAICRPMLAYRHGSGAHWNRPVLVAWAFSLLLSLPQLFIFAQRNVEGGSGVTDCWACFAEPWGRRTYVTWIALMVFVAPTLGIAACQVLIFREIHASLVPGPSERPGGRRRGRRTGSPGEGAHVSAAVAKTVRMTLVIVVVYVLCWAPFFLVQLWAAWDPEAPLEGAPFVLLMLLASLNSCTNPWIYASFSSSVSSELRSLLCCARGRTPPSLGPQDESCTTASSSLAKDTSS

Compound | tested on | test | system | conditions | endpoint | value
CC/C(=C(\c1ccccc1)c1ccc(OCCN(C)C)cc1)c1ccccc1 | human coronavirus OC43 | virus-induced cell killing | MRC-5 | screen | maximum inhibition | 3.81%
O=C(Nc1ccc2c(c1)B(O)OC2)c1cccc(OCc2c(Cl)cccc2Cl)c1 | Genome polyprotein, NS2B-NS3 protease (dengue virus type 2, UniProt P29990) | enzyme activity, FRET | dengue virus serotype 2 | 50 µM, added: substrate 50 µM | inhibition | 26 ± 6%
O=C(Nc1cccnn1)N1CCC(=Cc2cccc(Oc3ccc(C(F)(F)F)cn3)c2)CC1 | Retinoic acid receptor RXR-alpha (RXRA, Homo sapiens, UniProt P19793) | radioligand binding, inhibitor |  | 10 µM, human, added: [3H]9-cis-retinoic acid | inhibition | 15%
COc1ccc(N2C(=O)N(c3c(C)cccc3Cl)Cc3cnc(Nc4ccc(C5CCN(C)CC5)cc4OC)nc32)nc1 | cAMP-dependent protein kinase catalytic subunit beta (PRKACB, Homo sapiens, UniProt P22694) | kinase activity, inhibitor |  | 0.5 µM, kinase PKACB | inhibition | 5.26%
O=C(Nc1ccc2c(c1)B(O)OC2)c1cccc(OCc2ccccc2)c1 | Genome polyprotein, NS2B-NS3 protease (West Nile virus, UniProt P06935) | enzyme activity, FRET |  | 50 µM, added: substrate 50 µM | inhibition | 38 ± 9%
COc1cc(Nc2ncc(F)c(Nc3ccc4c(n3)NC(=O)C(C)(C)O4)n2)cc(OC)c1OC | Cyclin-dependent kinase 7 (CDK7, Homo sapiens, UniProt P50613) | KINOMEscan |  | 10 µM | inhibition | 0%
Cn1c2cc([S+](C)[O-])sc2c2cnn(Cc3cccc(N)c3)c(=O)c21 (centres unmarked) | human coronavirus OC43 | virus-induced cell killing | MRC-5 | screen | maximum inhibition | 42.9%
O=C(Nc1cnccc1Cl)N1CCN(Cc2ccc3c(c2)OC(F)(F)O3)CC1 | C-X-C chemokine receptor type 4 (CXCR4, Homo sapiens, UniProt P61073) | radioligand binding, inhibitor |  | concentration not given | inhibition | 12% and 14%
O=C(Nc1ccc2c(c1)B(O)OC2)c1ccc(OCc2ccccc2)cc1 | Genome polyprotein, NS2B-NS3 protease (dengue virus type 2, UniProt P29990) | enzyme activity, FRET | dengue virus serotype 2 | 50 µM, added: substrate 50 µM | inhibition | 10 ± 7%
CN(C(=O)n1cnc(-c2ccc[n+]([O-])c2)c1)C1CCCCC1 | Vasopressin V2 receptor (AVPR2, Homo sapiens, UniProt P30518) | radioligand binding |  | 50 µM, added: [3H]arginine vasopressin | inhibition | -6%
CN1CCN(c2cc(-c3ccncc3)c(-c3ccc4ccccc4c3)nn2)CC1 | Adenosine receptor A1 (ADORA1, Homo sapiens, UniProt P30542) | antagonist, FLIPR |  | 10 µM | inhibition | 7.9%
